Measured values of several laboratories.
± gives the spread as reported.
CDK8: Cyclin-dependent kinase 8 (CDK8, Homo sapiens, UniProt P49336)
UniProt P49336, sequence (whole entry, looked up): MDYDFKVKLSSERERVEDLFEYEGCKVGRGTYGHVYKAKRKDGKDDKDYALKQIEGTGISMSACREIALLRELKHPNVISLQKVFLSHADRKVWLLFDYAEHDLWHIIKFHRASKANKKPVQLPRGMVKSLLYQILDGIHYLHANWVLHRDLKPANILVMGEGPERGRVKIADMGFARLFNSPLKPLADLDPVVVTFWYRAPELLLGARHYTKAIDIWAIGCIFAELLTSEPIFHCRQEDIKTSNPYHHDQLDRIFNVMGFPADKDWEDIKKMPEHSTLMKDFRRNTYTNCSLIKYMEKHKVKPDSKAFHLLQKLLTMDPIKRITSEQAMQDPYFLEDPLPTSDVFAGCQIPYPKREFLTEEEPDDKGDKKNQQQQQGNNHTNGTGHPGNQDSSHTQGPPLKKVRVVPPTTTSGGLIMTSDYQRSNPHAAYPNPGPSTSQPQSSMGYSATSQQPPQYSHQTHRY
Urease: Urease (Canavalia ensiformis, UniProt P07374)
UniProt P07374, sequence (whole entry, looked up): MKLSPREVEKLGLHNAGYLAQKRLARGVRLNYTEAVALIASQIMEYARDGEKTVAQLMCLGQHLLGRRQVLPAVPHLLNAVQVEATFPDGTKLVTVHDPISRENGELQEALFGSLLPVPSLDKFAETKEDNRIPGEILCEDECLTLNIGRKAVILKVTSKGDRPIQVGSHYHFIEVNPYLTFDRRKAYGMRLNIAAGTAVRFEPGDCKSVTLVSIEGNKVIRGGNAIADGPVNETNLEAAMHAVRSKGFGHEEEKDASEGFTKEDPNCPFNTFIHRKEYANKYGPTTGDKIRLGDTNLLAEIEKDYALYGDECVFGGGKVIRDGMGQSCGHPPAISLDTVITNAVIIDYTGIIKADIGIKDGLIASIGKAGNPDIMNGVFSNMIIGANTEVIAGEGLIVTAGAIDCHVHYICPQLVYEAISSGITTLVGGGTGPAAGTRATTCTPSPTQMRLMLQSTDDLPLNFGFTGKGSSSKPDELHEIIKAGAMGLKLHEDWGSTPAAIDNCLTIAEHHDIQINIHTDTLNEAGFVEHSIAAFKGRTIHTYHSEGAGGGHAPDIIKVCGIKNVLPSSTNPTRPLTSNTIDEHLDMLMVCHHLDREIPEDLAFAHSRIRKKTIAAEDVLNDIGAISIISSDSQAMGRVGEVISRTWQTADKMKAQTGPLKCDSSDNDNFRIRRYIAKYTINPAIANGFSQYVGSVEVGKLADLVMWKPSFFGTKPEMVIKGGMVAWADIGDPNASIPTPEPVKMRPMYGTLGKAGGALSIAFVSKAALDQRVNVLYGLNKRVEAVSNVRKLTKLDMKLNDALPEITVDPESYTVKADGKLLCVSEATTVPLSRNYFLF
Replicase polyprotein 1a 3C-like proteinase: Replicase polyprotein 1a, 3C-like proteinase (Ferret coronavirus, UniProt A0A172B201)
MED23 with ELF3: Mediator of RNA polymerase II transcription subunit 23, with ELF3 (MED23, Homo sapiens, UniProt Q9ULK4)
Plasmepsin IX: Plasmepsin IX (Plasmodium falciparum, UniProt Q8ILG2)
UniProt Q8ILG2, sequence (whole entry, looked up): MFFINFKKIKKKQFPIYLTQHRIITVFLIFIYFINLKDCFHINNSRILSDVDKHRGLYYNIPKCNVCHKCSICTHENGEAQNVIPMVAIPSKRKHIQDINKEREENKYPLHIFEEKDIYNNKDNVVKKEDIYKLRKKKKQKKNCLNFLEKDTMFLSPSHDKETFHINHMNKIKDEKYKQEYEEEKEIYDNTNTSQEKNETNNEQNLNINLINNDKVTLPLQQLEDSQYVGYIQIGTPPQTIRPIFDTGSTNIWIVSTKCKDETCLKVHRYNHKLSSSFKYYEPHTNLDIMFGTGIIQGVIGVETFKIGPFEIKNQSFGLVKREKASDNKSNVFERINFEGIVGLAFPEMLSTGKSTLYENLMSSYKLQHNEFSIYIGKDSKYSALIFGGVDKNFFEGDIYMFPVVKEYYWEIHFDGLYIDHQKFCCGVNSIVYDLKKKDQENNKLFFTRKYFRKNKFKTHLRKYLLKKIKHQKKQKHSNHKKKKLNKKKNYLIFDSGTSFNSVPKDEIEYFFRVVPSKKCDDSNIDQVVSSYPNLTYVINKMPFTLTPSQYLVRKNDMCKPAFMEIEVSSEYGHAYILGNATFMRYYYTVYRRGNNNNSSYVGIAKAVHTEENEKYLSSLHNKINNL
Replicase polyprotein 1ab main protease: Replicase polyprotein 1ab, main protease (Feline coronavirus, UniProt Q98VG9)
crk3: crk3 (Leishmania mexicana, UniProt O15851)
UniProt P56817, sequence (whole entry, looked up): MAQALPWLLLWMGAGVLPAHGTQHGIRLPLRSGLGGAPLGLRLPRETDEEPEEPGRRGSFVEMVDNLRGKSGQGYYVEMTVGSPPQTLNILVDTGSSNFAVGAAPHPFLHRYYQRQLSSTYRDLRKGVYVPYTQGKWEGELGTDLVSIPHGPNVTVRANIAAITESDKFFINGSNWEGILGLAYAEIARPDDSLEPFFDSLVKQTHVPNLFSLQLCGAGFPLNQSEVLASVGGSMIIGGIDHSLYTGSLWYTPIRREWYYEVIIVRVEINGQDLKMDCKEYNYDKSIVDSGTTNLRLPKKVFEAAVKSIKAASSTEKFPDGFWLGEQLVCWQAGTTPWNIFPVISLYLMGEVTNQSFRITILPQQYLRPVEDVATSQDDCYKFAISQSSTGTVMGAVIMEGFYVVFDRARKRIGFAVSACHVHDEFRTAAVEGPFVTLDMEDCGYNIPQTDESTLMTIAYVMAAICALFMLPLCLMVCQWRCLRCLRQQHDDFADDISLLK

Structure (SMILES) | target | assay | test system | conditions | IC50
CC(C)=C1C(=O)Nc2ccc(S(=O)(=O)NCc3ccc(C)cc3)cc21 | CDK8 | enzyme activity, inhibitor, FRET |  |  | > 10 µM
Oc1ccccc1C1=NN(c2ccccc2)C(c2ccccc2C(F)(F)F)C1 (stereo not shown) | Urease | enzyme activity, inhibitor, absorbance |  | pH 8.2 | 9.18 µM
O=C(N[C@@H](CC1CCCCC1)C(=O)N[C@@H](C[C@@H]1CCNC1=O)C(O)S(=O)(=O)O)OCc1ccccc1 (stereo partly shown) | Replicase polyprotein 1a 3C-like proteinase | enzyme activity, FRET | NL-2010 |  | 1.04 ± 0.28 µM
O=C(C=Cc1ccco1)c1cccc(O)c1 | MED23 with ELF3 | SEAP reporter gene, inhibitor |  |  | 2.13 ± 0.04 µM
CC(C)=C1C(=O)Nc2ccc(S(=O)(=O)Nc3ccc(Cl)cc3)cc21 | CDK8 | enzyme activity, inhibitor, FRET |  |  | 2.57 µM
Oc1ccccc1C1=NN(c2ccccc2)C(c2cccs2)C1 (stereo not shown) | Urease | enzyme activity, inhibitor, absorbance |  | pH 8.2 | 29.5 µM
COc1ccc(C=CC(=O)c2ccccc2O)cc1 | MED23 with ELF3 | SEAP reporter gene, inhibitor |  |  | 1.98 ± 0.34 µM
O=C[C@H](C[C@@H]1CCNC1=O)NC(=O)[C@H](CC1CCCCC1)NC(=O)OCc1cccc(Cl)c1 | Replicase polyprotein 1a 3C-like proteinase | enzyme activity, FRET | NL-2010 |  | 0.98 ± 0.36 µM
CC(C)C[C@H](NC(=O)[C@@H](NC(=O)[C@H](CCONC(=N)N)NC(=O)OCc1ccccc1)C1CCCCC1)[C@@H](O)CC(=O)NCCc1ccccc1 | Plasmepsin IX | enzyme activity, inhibitor |  |  | > 99 µM
O=C(N[C@@H](CC1CCCCC1)C(=O)N[C@@H](C[C@@H]1CCNC1=O)C(=O)C(=O)NC1CC1)OCc1cccc(Cl)c1 | Replicase polyprotein 1ab main protease | enzyme activity, inhibitor, FRET |  |  | 6.57 µM
CC(C)C[C@H](NC(=O)[C@@H](NC(=O)[C@H](CCCNC(=N)N)NS(=O)(=O)Cc1ccccc1)C(C)C)[C@@H](O)CC(=O)NCCc1ccccc1 | Plasmepsin IX | enzyme activity, inhibitor |  |  | 50.7 µM
O=C1Nc2ccc(S(=O)(=O)Nc3ccccc3)cc2C1=C1CCCC1 | CDK8 | enzyme activity, inhibitor, FRET |  |  | 0.558 µM
O=C(N[C@@H](CC1CCCCC1)C(=O)N[C@@H](C[C@@H]1CCNC1=O)C(O)S(=O)(=O)O)OCc1cccc(Cl)c1 (stereo partly shown) | Replicase polyprotein 1a 3C-like proteinase | enzyme activity, FRET | NL-2010 |  | 0.29 ± 0.08 µM
Cc1cccc(-c2ccc3nc(NC(=O)CCC4CCCC4)nn3c2)c1 | crk3 | enzyme activity, inhibitor, radiometric |  |  | < 0.005 µM
CCc1ccc(NS(=O)(=O)c2ccc3c(c2)C(=C(C)C)C(=O)N3)cc1 | CDK8 | enzyme activity, inhibitor, FRET |  |  | > 10 µM
O=C[C@H](C[C@@H]1CCNC1=O)NC(=O)[C@H](CC1CCCCC1)NS(=O)(=O)c1cccc(Cl)c1 | Replicase polyprotein 1ab main protease | enzyme activity, inhibitor, FRET |  |  | 10.7 µM

Structure (SMILES) | target | assay | test system | conditions | IC50
CC(C)C[C@H](NC(=O)[C@@H](NC(=O)[C@H](CCONC(=N)N)NC(=O)OCc1ccccc1)C(C)C)[C@@H](O)CC(=O)NCCc1ccccc1 | Beta-secretase 1 (BACE1, Homo sapiens, UniProt P56817) | enzyme activity, inhibitor |  |  | > 1 µM
Cc1ccc(NC(=O)Nc2ccnc(-c3cccnc3)n2)cc1 | crk3, with CYC6 (Leishmania mexicana, UniProt O15851) | inhibitor, IMAP fluorescence polarisation |  | with: ATP 100 µM | 1.5 µM
O=C[C@H](C[C@@H]1CCNC1=O)NC(=O)[C@H](CC1CCCCC1)NC(=O)OCc1ccccc1 | Replicase polyprotein 1a 3C-like proteinase | enzyme activity, FRET | NL-2010 |  | 1.45 ± 0.3 µM
O=C(Nc1cc(-c2ccccc2)n[nH]1)C1COc2ccccc2O1 (stereo not shown) | crk3 | enzyme activity, inhibitor, radiometric |  |  | 0.65 µM
O=C[C@H](C[C@@H]1CCNC1=O)NC(=O)[C@H](CC1CCCCC1)NS(=O)(=O)c1ccc(Cl)cc1 | Replicase polyprotein 1a 3C-like proteinase | enzyme activity, FRET | NL-2010 |  | 24.2 ± 6.99 µM
Brc1ccccc1Nc1ncnc2[nH]ncc12 | Cyclin-dependent kinase 2, with cyclin A (CDK2, Homo sapiens, UniProt P24941) | enzyme activity, inhibitor |  |  | 1 µM
CCN(CC)c1ccc(C2CC(c3ccccc3O)=NN2c2ccccc2)cc1 (stereo not shown) | Urease | enzyme activity, inhibitor, absorbance |  | pH 8.2 | 13.3 µM
O=C(Nc1nc2ccccn2n1)C1CCCCC1 | crk3 | enzyme activity, inhibitor, radiometric |  |  | > 100 µM
COc1ccc(C=CC(=O)c2cccc(O)c2)c2ccccc12 | MED23 with ELF3 | SEAP reporter gene, inhibitor |  |  | 1.72 ± 0.02 µM
Cc1cccc(-c2ccc3nc(NC(=O)CC4CCCC4)nn3c2)c1 | crk3 | enzyme activity, inhibitor, radiometric |  |  | 0.04 µM
Oc1ccccc1C1=NN(c2ccccc2)C(c2cccc(C(F)(F)F)c2)C1 (stereo not shown) | Urease | enzyme activity, inhibitor, absorbance |  | pH 8.2 | 18.4 µM
Cc1cccc(-c2ccc3nc(NC(=O)c4ccccc4)nn3c2)c1 | crk3 | enzyme activity, inhibitor, radiometric |  |  | 1.1 µM
CCOc1ccc(NS(=O)(=O)c2ccc3c(c2)C(=C(C)C)C(=O)N3)cc1 | CDK8 | enzyme activity, inhibitor, FRET |  |  | > 10 µM
Cc1cccc(-c2ccc3nc(NC(=O)CC4CCCCC4)nn3c2)c1 | crk3 | enzyme activity, inhibitor, radiometric |  |  | 0.01 µM
O=C(C=Cc1ccc(Cl)cc1)c1cccc(O)c1 | MED23 with ELF3 | SEAP reporter gene, inhibitor |  |  | 2.97 ± 0.04 µM

A few entries again:
Structure (SMILES) | target | assay | test system | conditions | IC50
Oc1ccccc1C1=NN(c2ccccc2)C(c2cccc(C(F)(F)F)c2)C1 (stereo not shown) | Urease | enzyme activity, inhibitor, absorbance |  | pH 8.2 | 18.4 µM
Cc1cccc(-c2ccc3nc(NC(=O)c4ccccc4)nn3c2)c1 | crk3 | enzyme activity, inhibitor, radiometric |  |  | 1.1 µM
